Assay results collected from several papers.
Every numbered part comes from another study and shows a few of its results, in no order.

Block 1
Target: RING finger protein unkempt homolog, zinc fingers 1-6, SBP tag (UNK, Homo sapiens, UniProt Q9C0B0, residues 30-357)
Sequence of UniProt Q9C0B0 (30-357, looked up): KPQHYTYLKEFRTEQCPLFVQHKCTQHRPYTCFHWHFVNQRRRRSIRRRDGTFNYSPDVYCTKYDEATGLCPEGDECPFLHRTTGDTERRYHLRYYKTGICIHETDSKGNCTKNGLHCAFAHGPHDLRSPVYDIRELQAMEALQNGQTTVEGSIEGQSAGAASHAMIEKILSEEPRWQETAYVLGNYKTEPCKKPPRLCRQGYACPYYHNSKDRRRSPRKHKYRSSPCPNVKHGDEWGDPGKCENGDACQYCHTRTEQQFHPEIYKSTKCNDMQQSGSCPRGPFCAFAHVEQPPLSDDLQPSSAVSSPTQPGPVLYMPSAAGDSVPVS
Technique: RNA Bind-n-Seq
Form: RNA
Medium: in vitro
Tested at: 100 nM
Setting: RNA with constant flanks, vertebrate orthologous sites, ends assumed
Baseline: input RNA pool
Reading: higher = stronger binding
Constant ends, left off below: GGGAGUUCUACAGUCCGACGAUC … CAACAGAGGAUUGAGCAUCA
Sequence | bound/input enrichment [ratio]
AAGUAUCCCGGUUUACUGUGUUGAGUUGGCAUUGUACAGAAAUUAACAGCCAUAUUGGUCUAGAAACGUUAAACUUAAUUUUUUUCCAUUUGUACAGGGGUAACGCACUGUAUUAAAUAU | 0.821
AGCAAAUCAAGGAUUGAGGACUGGUUUUACAAAUAUACCAAGUAGAUAUGGAACUAAUAAUAGAAUUGGACAACCAAGACCAUGAUAGACUCUAACUUAUUUUUAUAAGGAAUAUUGACU | 0.366
UGUGUUGGUUGGGGUAGAAGGGGAGCAGGGCAGGACAGUGUGUGGAAUCUCUAGGAUAUGUAGGUAGAUAGGAUGCAGUUAGUUUUAACUGGGCUUAUAUGUUAAAAACUUCUGGGGGUG | 0.943
UACUUUUUUGUUAUUCCUUUAUGUCUUUCUACCUUGUUUUUUCUUUGUUUCUUUUUUUUGGUAGUUGUUGUUACCACACCAUUUUAUGUCUCCUUCACUGAAGGGCUAGAGUUUUAACUU | 1.22
UGGGCGUCCCCUCUGGGGAGCCGCUGGCUGCUUAGCGCUGUUUGAUUUUUGACCUUGACAUAGUAGAUAGGCUUGUGGUUUUUUUUUUAAUUUAAAGAUAUUAAGACUUAAUUCACUAAA | 0.513
GUACUGCCCGUGCAAAUCCCACAACACUGAAUGCAAAGUAGCAAUUUCCAUAGUCACAGUUAGGUAGCUUUAGGGCAAUAUUGCCAUGGUUUUACUCAUGUGCAGGUUUUGAAAAUGUAC | 1.33
AACAGUAGAAUUACAUAAUACUAAAGUUGCAGUUGAAAGGAUAUUCAAGUUAUGUGUUGGUAGUUACUAAAAGAAUUAUAGCUGUUAUUGCCUUGUAUUUAUAGCCCUUGUUUCAGGUUU | 1.05
GUGUUUUGGUACCACUUGACGUACCGAUACUCAUCCUUUUUUCAUUAUACCAACUCUCGCUAGAAGUAGGAAUUUAAUAUUUUUAAAAAUUUUACAUUGCUGUAUAUUCAAAAUUUUACA | 1.46

Block 2
Target: Prothrombin, mature alpha-thrombin (F2, Homo sapiens, UniProt P00734)
Technique: aptamer microarray, sandwich
Form: DNA with 2'F-ANA
Medium: in vitro
Tested at: 200 nM
Setting: whole 15-mer aptamer, many near background
With: Cy3 exosite-II aptamer, 400 nM
Reading: higher = stronger binding
Sequence: GGTTGGTGTGGTTGG
Modification | mean fluorescence intensity
2'F-ANA at 3 5 6 7 8 10 12 14 15 | 50.2 a.u.
2'F-ANA at 4 7 8 9 11 13 14 | 83.6 a.u.
2'F-ANA at 1 3 4 7 9 | 222 a.u.
2'F-ANA at 4 5 9 10 11 15 | 47.2 a.u.
2'F-ANA at 2 3 6 7 10 12 13 15 | 383 a.u.
2'F-ANA at 1 3 5 6 7 9 13 | 73.4 a.u.
2'F-ANA at 1 3 8 10 | 85.6 a.u.
2'F-ANA at 1 8 9 14 15 | 55.8 a.u.
2'F-ANA at 1 2 6 7 8 9 12 14 | 69 a.u.
2'F-ANA at 1 4 7 9 10 12 13 15 | 53.2 a.u.
2'F-ANA at 2 3 5 9 10 12 14 | 49.5 a.u.
2'F-ANA at 1 2 3 6 7 9 14 | 90.2 a.u.
2'F-ANA at 2 3 6 9 11 12 13 14 | 339 a.u.
2'F-ANA at 1 2 8 9 10 12 13 14 15 | 53.8 a.u.
2'F-ANA at 1 3 7 8 11 12 13 14 | 132 a.u.
2'F-ANA at 1 3 5 7 10 12 13 14 | 43.3 a.u.
2'F-ANA at 3 4 7 8 9 10 13 14 15 | 221 a.u.
2'F-ANA at 1 3 6 8 10 11 14 15 | 59.3 a.u.
2'F-ANA at 1 2 3 4 5 8 10 12 13 14 | 46.2 a.u.
2'F-ANA at 2 3 7 12 13 | 1130 a.u.
2'F-ANA at 3 7 8 9 10 11 12 | 614 a.u.
2'F-ANA at 2 4 6 8 9 11 13 14 15 | 69.4 a.u.
2'F-ANA at 4 8 11 15 | 260 a.u.

Block 3
Target: Histone acetyltransferase KAT6A, winged helix 2, GST fusion (KAT6A, Homo sapiens, UniProt Q92794, residues 85-181)
Technique: protein binding microarray
Form: double-stranded DNA, one strand shown
Medium: in vitro
Tested at: not given
Setting: 8-mer, flanks averaged, mean of 2 arrays, mostly near background
Baseline: not given
Reading: higher = stronger binding
Residues (chain): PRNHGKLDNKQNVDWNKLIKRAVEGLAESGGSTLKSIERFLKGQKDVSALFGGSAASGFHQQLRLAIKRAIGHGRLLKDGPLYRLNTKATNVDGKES
Sequence | E-score
AACTGAAC | -0.197
CGGTCGAC | 0.209
AACAGGTT | -0.133
GACTCGTA | -0.143
TCGTGCAA | 0.178
AGACTTTC | -0.306
ATATTACC | 0.0536
AATGTATC | 0.00805
ATTTTGGG | 0.0253
GGCGCTAA | -0.00909
ACGTAAGG | -0.277
ATTCAAAT | 0.0261
ATCTCACG | -0.0948
CGGGAGAG | 0.0581
AACCAACT | -0.0932
TACCGCTA | -0.192
AGGTGGAC | -0.0439
ATTCCCCC | 0.00579
ATAGACCC | -0.0941
CCTAGGTA | -0.338
AGCGACTA | -0.23

Block 4
Target: Ras GTPase-activating protein-binding protein 1, full length (G3BP1, Homo sapiens, UniProt Q13283)
Sequence of UniProt Q13283 (whole entry, looked up): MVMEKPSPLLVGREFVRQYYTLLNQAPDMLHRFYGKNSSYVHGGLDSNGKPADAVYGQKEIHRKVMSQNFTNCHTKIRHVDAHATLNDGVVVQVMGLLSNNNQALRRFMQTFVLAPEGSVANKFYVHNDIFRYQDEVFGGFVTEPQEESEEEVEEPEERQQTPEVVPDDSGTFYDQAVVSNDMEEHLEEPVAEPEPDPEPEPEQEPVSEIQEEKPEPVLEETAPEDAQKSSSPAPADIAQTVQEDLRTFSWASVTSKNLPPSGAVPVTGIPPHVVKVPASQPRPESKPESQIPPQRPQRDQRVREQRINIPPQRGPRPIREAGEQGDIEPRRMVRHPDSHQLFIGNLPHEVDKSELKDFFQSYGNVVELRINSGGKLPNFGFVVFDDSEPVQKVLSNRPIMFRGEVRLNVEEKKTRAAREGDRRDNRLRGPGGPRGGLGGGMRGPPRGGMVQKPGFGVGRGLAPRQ
Technique: RNA Bind-n-Seq
Form: RNA
Medium: in vitro
Tested at: 200 nM
Setting: whole 134-nt RNA, ends assumed
With: 150 mM KCl
Baseline: input library
Reading: higher = stronger binding
Constant ends, left off below: GGGAGUUCUACAGUCCGACGAUC … UGGAAUUCUCGGGUGUCAAGG
Sequence | log2 enrichment
GCAGGAAGUAAAAACAAAUGGAAAUGCUUCGGAUAGUGGCAGGGGUGGGGAUUGCUAAGGAAAGGGUGGGAUGGGAGUGGGUAAAGAGUU | 1.04
CAAGUCCUGUGCUACACAUCGUAUGUACCGAAUCGGUUUGGGGUUUGGGUUUGGGAAAGUAUUAUGUUACGCCGUUCGGAUCUGCACUUC | -0.163
UAACUUUAGAGGAGGAUCUGAUGAAUAUGGCAGUGGACGUGGAUUUGGGGAUGGCUAUAAUGGGUAUGGAGGAGGACCUGGAGGUGGCAA | 0.396
CAAGUCCUGUGCUACACAUCGUAUGUACCGAAUCGGGGCCCGGCCCGGGCCCGGGGAAAGUAUUAUGUUACGCCGUUCGGAUCUGCACUU | -1.23
ACCAUGCAGGUGGGCGUCUUUGGGAAGUGGGGCAAGGGGGGGAUAGGGAGGGGGGUAACACUUUGGGAACAGGUGGUCCCAGGUCGUUUC | 0.93
UGGCCCUGGUGGCAUGCGGGGAGGAAGAGGUGGCCUCAUUGAUCGUGGUGGUCCCGGUGGAAUGUUCAGAGGUGGCCGUGGUGGAGACAG | 0.331
CAUCAAAAUAGCUACAAACCAUACUAAAUUAUUCCAUUUGCAACUUAUCCCCAACAGGUAUGUUCUAAAAAUAGUUUUUUUUUGUCAUUU | -0.603
GCAGGAAGUAAAAACAAAUGGAAAUGCUUCGGAUAGUGUCAGGGGUGGGGGUUGCUAAGGAAAGGGUGGGAUGGGAGUGGGUAAAGAGUU | 1.11
GUCCUGUGCUACACAUCGUAUGUACCGAAUCGGGUUUUUUGGUUUUUUGGUUUUUUGGGAAAGUAUUAUGUUACGCCGUUCGGAUCUGCA | -1.17
